# Published values from different studies.
# Protocols differ between the studies behind these lines.
# LRRK2: Leucine-rich repeat serine/threonine-protein kinase 2 (LRRK2, Homo sapiens, UniProt Q5S007)
# Sequence of UniProt Q5S007 (whole entry, unmodified, looked up): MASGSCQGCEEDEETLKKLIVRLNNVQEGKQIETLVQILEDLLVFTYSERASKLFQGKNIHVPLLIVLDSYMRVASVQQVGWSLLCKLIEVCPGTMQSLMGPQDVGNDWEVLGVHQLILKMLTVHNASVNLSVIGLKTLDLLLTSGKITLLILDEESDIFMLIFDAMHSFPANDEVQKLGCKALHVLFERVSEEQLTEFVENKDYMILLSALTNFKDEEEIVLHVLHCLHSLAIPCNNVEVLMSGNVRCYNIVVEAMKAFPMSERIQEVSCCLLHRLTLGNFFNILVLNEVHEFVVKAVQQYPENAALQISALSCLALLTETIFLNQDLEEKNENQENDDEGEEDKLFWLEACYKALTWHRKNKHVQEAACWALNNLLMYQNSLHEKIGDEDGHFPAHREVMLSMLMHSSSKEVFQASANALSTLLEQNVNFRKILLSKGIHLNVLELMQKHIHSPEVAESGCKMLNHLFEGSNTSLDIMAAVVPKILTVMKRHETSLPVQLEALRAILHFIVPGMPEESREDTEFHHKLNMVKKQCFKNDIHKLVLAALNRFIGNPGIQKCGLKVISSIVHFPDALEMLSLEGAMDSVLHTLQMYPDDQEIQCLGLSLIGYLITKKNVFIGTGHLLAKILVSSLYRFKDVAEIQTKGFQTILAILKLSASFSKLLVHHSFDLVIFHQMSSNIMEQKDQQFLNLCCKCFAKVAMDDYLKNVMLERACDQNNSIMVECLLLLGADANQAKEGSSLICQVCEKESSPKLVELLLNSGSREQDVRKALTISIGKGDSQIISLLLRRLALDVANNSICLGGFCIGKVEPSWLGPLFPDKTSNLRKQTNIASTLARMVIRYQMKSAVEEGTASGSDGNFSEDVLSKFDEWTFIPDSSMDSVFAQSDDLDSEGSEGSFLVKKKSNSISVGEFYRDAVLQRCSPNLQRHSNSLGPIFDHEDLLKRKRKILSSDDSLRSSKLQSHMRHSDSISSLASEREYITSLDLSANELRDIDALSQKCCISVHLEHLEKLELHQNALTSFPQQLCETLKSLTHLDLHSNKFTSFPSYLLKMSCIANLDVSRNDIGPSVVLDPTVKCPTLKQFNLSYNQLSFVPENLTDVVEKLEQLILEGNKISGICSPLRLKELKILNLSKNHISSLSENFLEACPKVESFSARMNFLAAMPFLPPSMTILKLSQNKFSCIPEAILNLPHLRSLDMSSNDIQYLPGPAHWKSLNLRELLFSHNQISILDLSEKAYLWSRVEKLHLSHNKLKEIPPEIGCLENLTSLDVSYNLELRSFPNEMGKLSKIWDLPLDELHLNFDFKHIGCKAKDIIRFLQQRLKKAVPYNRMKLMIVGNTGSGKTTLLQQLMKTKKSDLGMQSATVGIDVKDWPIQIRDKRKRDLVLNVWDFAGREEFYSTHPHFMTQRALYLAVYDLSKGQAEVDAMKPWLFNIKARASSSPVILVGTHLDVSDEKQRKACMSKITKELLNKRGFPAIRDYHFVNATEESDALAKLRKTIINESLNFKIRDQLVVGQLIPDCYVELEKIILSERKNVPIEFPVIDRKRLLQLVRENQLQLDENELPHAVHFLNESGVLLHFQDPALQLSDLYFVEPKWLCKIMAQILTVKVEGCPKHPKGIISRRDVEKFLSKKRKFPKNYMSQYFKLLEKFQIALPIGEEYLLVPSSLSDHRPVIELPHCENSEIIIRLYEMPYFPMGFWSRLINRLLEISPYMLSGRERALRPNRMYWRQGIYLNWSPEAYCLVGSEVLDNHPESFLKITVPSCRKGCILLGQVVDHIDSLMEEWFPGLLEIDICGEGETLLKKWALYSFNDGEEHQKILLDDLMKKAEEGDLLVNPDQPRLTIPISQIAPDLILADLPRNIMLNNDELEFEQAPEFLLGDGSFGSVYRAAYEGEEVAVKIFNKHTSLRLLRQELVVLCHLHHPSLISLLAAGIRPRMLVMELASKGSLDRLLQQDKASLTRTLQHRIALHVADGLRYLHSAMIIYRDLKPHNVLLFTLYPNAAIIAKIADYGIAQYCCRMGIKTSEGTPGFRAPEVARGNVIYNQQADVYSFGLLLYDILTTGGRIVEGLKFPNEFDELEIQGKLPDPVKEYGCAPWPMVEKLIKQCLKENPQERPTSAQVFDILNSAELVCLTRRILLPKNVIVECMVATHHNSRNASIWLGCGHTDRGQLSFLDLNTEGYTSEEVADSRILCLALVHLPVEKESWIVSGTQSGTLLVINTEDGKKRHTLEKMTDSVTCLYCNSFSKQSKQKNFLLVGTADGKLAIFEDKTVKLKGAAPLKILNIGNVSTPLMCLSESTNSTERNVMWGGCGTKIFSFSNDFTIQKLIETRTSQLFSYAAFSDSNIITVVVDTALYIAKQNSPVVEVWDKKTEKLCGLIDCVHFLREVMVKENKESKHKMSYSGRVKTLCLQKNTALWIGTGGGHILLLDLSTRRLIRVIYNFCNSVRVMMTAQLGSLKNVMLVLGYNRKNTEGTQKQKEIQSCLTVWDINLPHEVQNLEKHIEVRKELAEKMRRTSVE
# LRRK2 G2019S: Leucine-rich repeat serine/threonine-protein kinase 2 (LRRK2, Homo sapiens, UniProt Q5S007, G2019S)
Structure (SMILES),target,test,setting,how to read,quantity,value
Cc1ccc(-c2c(/C=C(\C#N)C(=O)NC(C)C)n(CCCO)c3ncnc(N)c23)cc1,LRRK2,"cell-free assay, competition with immobilised ligand",1 µM,,remaining binding,93%
Cc1cnc2nc1Nc1cccc(c1)COC/C=C/COCc1cc(ccc1OCCN1CCOCC1)N2,LRRK2 G2019S,binding,0.1 µM,,remaining binding,100%
Cc1cccc(O[C@H]2CCC[C@@H](C(C)CNCc3ccncc3)C2)c1 (relative stereo),LRRK2 G2019S,"enzyme activity, inhibitor",1 µM,,inhibition,0%
NC(=O)[C@@H](O)C[C@H]1CCc2sc3ncnc(O[C@H]4CC[C@H](N5CCOCC5)CC4)c3c21,LRRK2,"enzyme activity, inhibitor",10 µM,,inhibition,7%
CCN1CCN(Cc2ccc(C(=O)Nc3ccc(C)c(NCc4cnc5[nH]ccc5c4OC)c3)cc2C(F)(F)F)CC1,LRRK2,"binding, competition with immobilised ligand",1 µM,,remaining binding,97%
CNC(=O)C1CCN(c2cc(C)c(F)cc2NC(=O)c2ccc(-c3cc(O)ccc3C)c(C)c2)CC1,LRRK2 G2019S,"binding, competition with immobilised ligand",1 µM,,remaining binding,75%
C=CC(=O)Nc1cccc(-c2cnc3[nH]cc(C(=O)NC(C)(C)C)c3n2)c1,LRRK2 G2019S,"enzyme activity, inhibitor",0.1 µM,,inhibition,62%
CNC1C[S+]2CC[S+]3CC[S+](C1)[Ru-4]321([N]=C=S)[n]2c3ccc(OC)cc3c3c4c(c5cc(F)c[n+]1c5c32)C(=O)NC4=O (centres unmarked),LRRK2 G2019S,KinomeScan,0.1 µM,reference: untreated,remaining binding,80%
CN1CC[C@@H](COc2cnc(C#N)cc2-c2ccn3nc(NC(=O)C4CC4)cc3c2)C1,LRRK2,"enzyme activity, inhibitor",1 µM,,inhibition,17%
C[C@]1(O)CCCN(c2nc(Nc3ccc(S(=O)(=O)N[C@H]4CC[C@H](CN5CCN(c6ccc(C7CCC(=O)NC7=O)cc6F)CC5)CC4)cc3)ncc2C(F)(F)F)C1 (some centres unmarked),LRRK2 G2019S,"binding, competition with immobilised ligand",1 µM,,remaining binding,21%
C=CC(=O)N1CCCC(n2c(=O)c3ncccc3n(Cc3ccc(Oc4ccccc4)cc3)c2=O)C1 (centres unmarked),LRRK2 G2019S,"cell-free assay, competition with immobilised ligand",1 µM,,remaining binding,73%
